Measurements pooled from the literature.
Each line is one published result; not all experiments were run side by side. Numbers after ± are the reported error.

`O=[N][Fe]1([N]=O)[S](CCO)[Fe]([N]=O)([N]=O)[S]1CCO` — result for “serum uric acid”: 3.62 ± 0.38 mg/dL (aged C57BL/6JNarl mice on Western diet; po, 2.65 mg/kg daily, 16 weeks).
`CCCCN1C(=O)c2cccc3c(NCCCCCCN4CCOCC4)ccc(c23)C1=O` gave an absorption maximum of 428 nm (dioxane).
`COc1cccc(OC)c1-c1cc(C(=O)NC2(C(=O)O)C3CC4CC(C3)CC2C4)nn1-c1ccc(C(=O)N(C)CCCN(C)CCCN(C)C(=O)[C@H](CCCCNC(=O)[C@H](CC(C)C)NC(=O)C2OC2C(=O)O)NC(=O)CN2CCN(CC(=O)[O-])CCN(CC(=O)[O-])CCN(CC(=O)[O-])CC2)cc1C(C)C.[177Lu+3]` (mixture of isomers) has a tumour-to-liver ratio of 4.95 (mouse, HT-29 xenograft; 24 h post injection, biodistribution; baseline: tumour over liver uptake).
The intact complex of `CN(O)C(=O)CCC(=O)NCCCN(CCCCN(CCCNC(=O)CCC(=O)N(C)O)C(=O)CCC(=O)N(C)O)C(=O)CCC(=O)N(C)O.[89Zr]` is reported as 99.7 ± 0.6% (radio-TLC; aqueous buffer; 1 d, pH 7.2, 37 °C, 89Zr-labelled complex, with: MgCl2 10-fold excess).
`COc1cc2ncnc(Oc3ccc(Nc4nccc5[nH]cc(-c6ccc(F)cc6)c(=O)c45)cc3F)c2cc1OC` has a half-life of 8.25 h (male beagle dog, plasma; intravenous, 2 mg/kg).
The fraction unbound of `Cc1ncc2c(n1)CN(C(=O)Nc1nc(-c3cccs3)ccc1N)C2` is reported as 0.297 (mouse, brain homogenate).
The tissue uptake of `COc1cccc(OC)c1-c1cc(C(=O)NC2(C(=O)O)C3CC4CC(C3)CC2C4)nn1-c1ccc(C(=O)N(C)CCOCCN(C)C(=O)[C@H](CCCCNC(=O)[C@H](CC(C)C)NC(=O)C2OC2C(=O)O)NC(=O)CN2CCN(CC(=O)[O-])CCN(CC(=O)[O-])CCN(CC(=O)[O-])CC2)cc1C(C)C.[177Lu+3]` (mixture of isomers) is reported as 0.8 %ID/g (mouse, HT-29 xenograft, spleen; 72 h post injection).
The MRT(0-last) of `C=C(NC(=O)c1csc(-c2nc3c(cc2O)-c2nc(cs2)C(=O)NC(C(C)O)C(=O)NC(=C(C)OC)c2nc(cs2)C(=O)NC2c4nc(cs4)C(=O)NC(COC(=O)c4c5c6c(cccc6n4O)COC(=O)C(OC4CC(C)(O)C(N(C)C)C(C)O4)C2OC5)c2nc-3cs2)n1)C(N)=O` (stereo not shown) is reported as 1.6 h (cynomolgus monkey, male, plasma; intravenous infusion, 3 mg/kg multiple doses, day 7).
The tracer uptake of `Cc1nc(N)nc2c1C(=O)N[C@@H](c1ccc(F)cc1-c1cccc(O[11CH3])n1)C2` is reported as 16.1 ± 6.5 %ID (ex vivo biodistribution; mice, U87 subcutaneous xenograft, muscle; 60 min post-injection, baseline, vehicle pre-treatment).
The half-life of `CC(C)Cn1cc(Cc2cccc(OC(C)(C)C(=O)O)c2)c2ccc(C(=O)N[C@@H](C)c3cc(F)cc(C(C)(C)C)c3)cc21` is reported as greater than 1 h (metabolic stability; mouse, liver microsomes).
The median SUV of `O=C(Nc1cnccc1-c1ccc([18F])nc1)c1ccnc(NC(=O)C2CC2)c1` is reported as 0.142 (PET imaging; FVB/NJ mice, both sexes, brain; intravenous, 60 min post-injection, P-gp inhibited, with: tariquidar 15 mg/kg iv, 2 h before).
The elimination half-life of `CCCCCCCC(=O)[O][Pt]([Cl])([Cl])[O]C(=O)CCCCCCC.N.N` is reported as 25.4 h (ICP-MS, measured: platinum; nude mice, blood; intravenous, 1.95 mg/kg).
Under “intact radiolabelled complex”, `O=C([O-])CN1CCN(CC(=O)[O-])CCN(CC(CCCc2ccccc2[N+](=O)[O-])N(CC(=O)[O-])CC(=O)[O-])CC1.[90Y+3]` (stereo not shown) is recorded as 99.8 ± 0.2% (TLC; human serum; 135 h, pH 7, 37 °C).
For `Cc1cc(-c2ccc(C(=O)[C@@H]3CCCC[C@H]3C(=O)Nc3cnn4c3C(=O)NCC4)cc2)[nH]n1`, “cumulative recovery of radioactivity” read 5.89% (human, urine; oral, 200 mg, 0-168 h; baseline: dose).
Under “lanthanide tissue concentration”, `O=C([O-])CN1CCN(CC(=O)[O-])CCN(C(CO)C(O)CO)CCN(CC(=O)[O-])CC1.[Dy+3]` (stereo not shown) is recorded as 0.033 ± 0.006 nmol/g (cynomolgus monkey, cerebellum; dose not given, day 5).
With `Cc1nc(N)nc2c1C(=O)N[C@@H](c1ccc(F)cc1-c1cccc(OCC[18F])n1)C2` the uptake was 0.93 ± 0.17 %ID (ex vivo biodistribution; C57BL/6 mice, stomach; intravenous, 30 min).
For `O=C(Nc1cnccc1-c1ccc([18F])cc1)c1ccnc(NC(=O)C2CC2)c1`, the median SUV was 0.1 (PET imaging; FVB/NJ mice, both sexes, brain; intravenous, 120 min post-injection).
`CC(C)(O)c1ncc([S@](N)(=O)=NC(=O)Nc2c3c(cc4c2CCC4)CCC3)s1`: “share of subjects with TEAEs” 63% (measured: all system organ classes; healthy human subjects; oral, dose not given, all active doses).
For `Cc1cc(F)ccc1-c1cc(N2C[C@H]3COC(O)CN3C[C@H]2CO)ncc1N(C)C(=O)C(C)(C)c1cc(C(F)(F)F)cc(C(F)(F)F)c1` (stereo partly shown), “share of total plasma radioactivity” read roughly 11% (human male, plasma; oral, 120 mg, AUC(0-inf) based).
With `C/C(N)=N/C(=N\S(=O)(=O)c1ccc(C(F)(F)F)cc1)N1C[C@H](c2ccccc2)C(c2ccc(Cl)cc2)=N1` the Tmax was 0.5 h (male C57BL/6 mouse, brain; intravenous, 10 mg/kg).
The AUC extrapolated of `Cc1cc(C)nc(NC(=S)N2CCN(Cc3ccc(C(F)(F)F)cc3)CC2)c1` is reported as 0.1% (plasma; intraperitoneal, 30 mg/kg).
`CNC(=O)C1CCCN(C(=O)C2CC3CCC2N3C(=O)[C@@H]2C[C@@H](O)CN2C(=O)NCc2cccc(Cl)c2F)C1` (mixture of isomers) has an intrinsic clearance of 4.4 µL/min/mg (rat liver microsomes).
`CN(CCNc1ccc2ncc(-c3ccc(C(N)=O)cc3)n2n1)C(=O)OC(C)(C)C` has a drug concentration of 11 µM (mouse, SNL model, plasma; oral, 60 mg/kg, 120 min).
`CN1CCC[C@]1(C)/C=C/S(=O)(=O)NC(=O)Nc1c2c(cc3c1CCC3O)CCC2` (stereo partly shown) — result for “AUC(0-tau) accumulation ratio”: 1.9 (human, plasma; oral, 12.5 mg twice daily of parent drug, metabolite of dosed drug; baseline: day 14 over day 1).
`CCCCN1C(=O)c2cccc3c(NCCCCCCCCN4CCOCC4)ccc(c23)C1=O` has an absorption maximum of 439 nm (DMF).
`CN1CCC[C@]1(C)/C=C/S(=O)(=O)NC(=O)Nc1c2c(cc3c1CC(O)C3)CCC2` (stereo partly shown) has an AUC(0-tau) of 6600 ng·h/mL (human, plasma; oral, 12.5 mg twice daily of parent drug, day 1, metabolite of dosed drug).
For `CC(C)[C@H](NC(=O)[C@H](Cc1c[nH]c2ccccc12)NC(=O)[C@H](CCCNC(=N)N)NC(=O)[C@H](CCCNC(=N)N)NC(=O)[C@@H](NC(=O)[C@@H](NC(=O)[C@H](CCCNC(=N)N)NC(=O)[C@@H](NC(=O)[C@@H](NC(=O)[C@H](CCCNC(=N)N)NC(=O)[C@H](CCCNC(=N)N)NC(=O)[C@@H](NC(=O)[C@H](Cc1c[nH]c2ccccc12)NC(=O)[C@H](CCCNC(=N)N)NC(=O)[C@H](CCCNC(=N)N)NC(=O)[C@@H](NC(=O)[C@H](CCCNC(=N)N)NC(=O)[C@H](CCCNC(=N)N)NC(=O)[C@@H](NC(=O)[C@H](Cc1c[nH]c2ccccc12)NC(=O)[C@H](CCCNC(=N)N)NC(=O)[C@@H](N)CCCNC(=N)N)C(C)C)C(C)C)C(C)C)C(C)C)C(C)C)C(C)C)C(C)C)C(=O)N[C@@H](CCCNC(=N)N)C(=O)N[C@@H](CCCNC(=N)N)C(=O)O`, “urinary creatinine excretion” read 11.2 µg/day/g body weight (CD-1 mice; intravenous, 15 mg/kg, 6-24 h).
For `CCCCN1C(=O)c2cccc3c(NCCCCN4CCOCC4)ccc(c23)C1=O`, the fluorescence lifetime was 9 ns (chloroform).

A few entries again:
The tissue uptake of `COc1cccc(OC)c1-c1cc(C(=O)NC2(C(=O)O)C3CC4CC(C3)CC2C4)nn1-c1ccc(C(=O)N(C)CCOCCN(C)C(=O)[C@H](CCCCNC(=O)[C@H](CC(C)C)NC(=O)C2OC2C(=O)O)NC(=O)CN2CCN(CC(=O)[O-])CCN(CC(=O)[O-])CCN(CC(=O)[O-])CC2)cc1C(C)C.[177Lu+3]` (mixture of isomers) is reported as 0.8 %ID/g (mouse, HT-29 xenograft, spleen; 72 h post injection).
The MRT(0-last) of `C=C(NC(=O)c1csc(-c2nc3c(cc2O)-c2nc(cs2)C(=O)NC(C(C)O)C(=O)NC(=C(C)OC)c2nc(cs2)C(=O)NC2c4nc(cs4)C(=O)NC(COC(=O)c4c5c6c(cccc6n4O)COC(=O)C(OC4CC(C)(O)C(N(C)C)C(C)O4)C2OC5)c2nc-3cs2)n1)C(N)=O` (stereo not shown) is reported as 1.6 h (cynomolgus monkey, male, plasma; intravenous infusion, 3 mg/kg multiple doses, day 7).
The tracer uptake of `Cc1nc(N)nc2c1C(=O)N[C@@H](c1ccc(F)cc1-c1cccc(O[11CH3])n1)C2` is reported as 16.1 ± 6.5 %ID (ex vivo biodistribution; mice, U87 subcutaneous xenograft, muscle; 60 min post-injection, baseline, vehicle pre-treatment).
The half-life of `CC(C)Cn1cc(Cc2cccc(OC(C)(C)C(=O)O)c2)c2ccc(C(=O)N[C@@H](C)c3cc(F)cc(C(C)(C)C)c3)cc21` is reported as greater than 1 h (metabolic stability; mouse, liver microsomes).
The median SUV of `O=C(Nc1cnccc1-c1ccc([18F])nc1)c1ccnc(NC(=O)C2CC2)c1` is reported as 0.142 (PET imaging; FVB/NJ mice, both sexes, brain; intravenous, 60 min post-injection, P-gp inhibited, with: tariquidar 15 mg/kg iv, 2 h before).
